Assay results collected from several papers.
A part holds a random share of what one study measured.

Study 1
Target: Transcription factor Sp1 (SP1, Homo sapiens, UniProt P08047, residues 1-785, full length assumed)
Chain of UniProt P08047 (whole entry, looked up): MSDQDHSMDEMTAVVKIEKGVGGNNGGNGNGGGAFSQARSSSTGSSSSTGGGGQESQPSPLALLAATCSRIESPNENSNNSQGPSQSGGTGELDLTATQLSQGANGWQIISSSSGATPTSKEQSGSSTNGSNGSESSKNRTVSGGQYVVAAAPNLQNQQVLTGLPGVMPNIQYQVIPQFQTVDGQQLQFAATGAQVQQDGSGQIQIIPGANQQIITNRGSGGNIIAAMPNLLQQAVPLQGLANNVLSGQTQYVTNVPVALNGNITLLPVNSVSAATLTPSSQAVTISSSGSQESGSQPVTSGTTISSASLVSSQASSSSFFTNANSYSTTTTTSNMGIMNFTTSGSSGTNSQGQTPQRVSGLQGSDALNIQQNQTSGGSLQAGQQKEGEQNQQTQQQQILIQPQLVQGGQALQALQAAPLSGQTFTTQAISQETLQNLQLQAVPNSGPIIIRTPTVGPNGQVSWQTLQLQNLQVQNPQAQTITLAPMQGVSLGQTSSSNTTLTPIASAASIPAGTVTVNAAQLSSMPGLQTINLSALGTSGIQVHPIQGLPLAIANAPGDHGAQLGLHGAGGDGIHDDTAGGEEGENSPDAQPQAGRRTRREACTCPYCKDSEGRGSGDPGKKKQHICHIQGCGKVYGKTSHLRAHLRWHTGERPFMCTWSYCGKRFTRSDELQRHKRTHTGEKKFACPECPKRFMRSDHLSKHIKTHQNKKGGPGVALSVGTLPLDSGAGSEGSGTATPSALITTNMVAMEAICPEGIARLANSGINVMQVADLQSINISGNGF
Method: protein-binding microarray
Form: double-stranded DNA, one strand shown
Medium: in vitro
Tested at: not given
Setting: k-mer, scored over probes, only values ≥0.25
Direction: higher = stronger binding
Endpoint: E-score
GTAGGGGA: 0.255
CCATATGG: 0.317
ACATAGAA: 0.251

Study 2
Target: Interferon regulatory factor 5, full length, phosphomimetic (IRF5, Homo sapiens, UniProt Q13568-2, residues 1-514, K96S/S451D/S453D/S456D/S462D)
Method: protein-binding microarray
Form: double-stranded DNA, one strand shown
Medium: in vitro
Tested at: 250 nM
Setting: 60-bp whole probe
With: salmon DNA 0.4 mg/ml
Reference: random background probes
Direction: higher = stronger binding
Endpoint: log fluorescence
All sequences stand within: GCCTAGCAC … GTCTTGATTCGCTTGACGCTGCTG
TCAGCTATACCACTCTTACTGTGCTAG: -0.129 z-score
GACGGACTGGGGTATCCGGACGTGCTA: -0.712 z-score
CTCTACATGTGTTTAAAAAGGTGCTAG: -0.00756 z-score
TCAGCTTACAATATAAAACTGTGCTAG: 0.717 z-score
CACTGCATCTGATTTCTCAAAGTGCTA: 0.695 z-score
TCAAATATATATATTATACTGTGCTAG: 0.606 z-score
CTTAGCTTGGGTCTGTGCCTGTGCTAG: -0.516 z-score

Study 3
Target: Histone acetyltransferase KAT6A, both winged helices, GST fusion (KAT6A, Homo sapiens, UniProt Q92794, residues 1-181)
Method: protein binding microarray
Form: double-stranded DNA, one strand shown
Medium: in vitro
Tested at: not given
Setting: 8-mer, flanks averaged, mean of 2 arrays, mostly near background
Reference: not given
Direction: higher = stronger binding
Endpoint: E-score
Target sequence (chain): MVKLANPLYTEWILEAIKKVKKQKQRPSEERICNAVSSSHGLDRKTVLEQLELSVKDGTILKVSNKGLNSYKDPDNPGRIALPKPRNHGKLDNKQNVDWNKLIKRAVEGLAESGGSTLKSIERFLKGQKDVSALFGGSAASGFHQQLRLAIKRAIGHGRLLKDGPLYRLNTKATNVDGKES
CGTTGGAC: -0.0494
AGTAAGAC: 0.0495
ACCGGGTG: 0.206
CATATAGG: -0.0882
GCAGTTGA: -0.0816
AAAATACA: -0.0401
CGTGAACG: 0.152

Single results of other studies
PhoQ, residues 284 288 289 292 302 303 TSTLRA
fold induction (PhoP, residues 12 14 15 18 19 AWHSL (Escherichia coli, UniProt P23836); Sort-seq, item: YFP reporter; E. coli; PhoQ-PhoP variant library, with: 10 µM Mg2+; reference: high Mg2+ state, higher = stronger signaling): 0.588

A few entries again (study 2):
TCAAATATATATATTATACTGTGCTAG: 0.606 z-score
